Assay results from different studies.
Numbered parts are unrelated; each lists some results of a single study. Changes are numbered by the printed parent chain.

Study 1
Target: RING finger protein unkempt homolog, zinc fingers 1-6, GST-SBP tag (UNK, Homo sapiens, UniProt Q9C0B0, residues 30-357)
Sequence of UniProt Q9C0B0 (30-357, looked up): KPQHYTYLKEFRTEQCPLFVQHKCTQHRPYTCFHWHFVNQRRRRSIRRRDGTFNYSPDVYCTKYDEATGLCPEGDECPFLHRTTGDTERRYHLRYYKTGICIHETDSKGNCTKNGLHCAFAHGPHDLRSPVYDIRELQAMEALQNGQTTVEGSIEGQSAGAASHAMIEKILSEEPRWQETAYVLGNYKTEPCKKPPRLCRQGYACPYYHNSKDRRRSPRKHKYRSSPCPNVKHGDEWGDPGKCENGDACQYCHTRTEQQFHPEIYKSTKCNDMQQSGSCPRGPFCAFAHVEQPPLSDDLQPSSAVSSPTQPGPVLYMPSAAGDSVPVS
Technique: RNA Bind-n-Seq
Molecule type: RNA
Sample: in vitro
Tested at: not given
Notes: RNA with constant flanks, human-mouse chimeric sites, ends assumed
Baseline: input RNA pool
Direction: higher = stronger binding
Strand	bound/input enrichment [ratio]
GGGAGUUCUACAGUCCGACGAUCCUUAAUGUUAAUAUUUUUGAAUAAAUGAAGCUAAAAUGUCUGCUUUUGGUACUACAUGCAUUAAUAAAAGGUUAAGUUUUGUUUUCCACUGAAGUACUAUUUAACAUACAUCUCAGAAACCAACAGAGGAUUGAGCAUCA	0.254
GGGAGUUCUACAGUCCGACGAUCCUUAAUGUUAAUAUUUUUGAAUAAAUGUAAAACCAUGGUCUGCUUUUGGUACAACACGCAUUAGCGAAAGGUUAAGUUUUGUUUUCCACUGAAGUACUAUUUAACAUCUCAGAAAAAAACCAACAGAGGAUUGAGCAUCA	0.505
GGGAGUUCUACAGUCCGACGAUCCAGACUGUGUCAUACUUUUUAGACAUUCACAUCAGACUUACAGAGCACCUGGCCACAUUCUAGGUUUGUGUUAUUUCUCAGCUAUGGAUAUGAUCAAAUGAGAACACUGCUUAACUAAUGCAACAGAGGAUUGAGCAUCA	0.558
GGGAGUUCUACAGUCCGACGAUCCUGGCACUCUAUCAGAUAGAUUACUUUUUUAAUGUAGAUGUAAUUUUAAAAAUGAAUGGCUAGUUUACACGUUUAACUAGGGUUUUACUAUAUAUGUGUACAUAUGUAUAUAUAUAUAUACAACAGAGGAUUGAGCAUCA	22.7
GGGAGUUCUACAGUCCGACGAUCUAAGUUAUUUUGUACAGUAAGUUAUUUUGUAUAGCUUUUUAUAUUGCCAUGUUUAUUUUGUUUGGGUAAUUUGGUUCAUUAAGUACAUAGCUAAGGUAAUGAACAUCUUUUUCAGUAAUUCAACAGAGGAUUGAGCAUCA	2.15
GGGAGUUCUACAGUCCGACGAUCUCCCAAAUUAUAAGGCAAGAAGGAGCCUUGAGACAAACACUCCACACACAGGGAAGGCGAUAACAUUGUAAAUUGGUUUACAUUUUUUCCCCCUGUGGAUUUUUCUAGAGGUCAUAGUGCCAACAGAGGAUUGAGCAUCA	0.37
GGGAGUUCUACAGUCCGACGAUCGGGUGGGUGGUCAUUGCCGUUUGAGCUGCUGAUUUUCAUGAGUCGCCUUCAAAACUCUCGUGUAGGGUUGACAAUGUGGGGGGGUGGGGGAUCCAGCUUAUUCUUUUAUUUUCAAGUCCACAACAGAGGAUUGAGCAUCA	0.294
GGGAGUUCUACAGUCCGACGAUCGAUAAGAAAAGCUUGUUGGAGACCCGCUUGCAUGUCACUGGCAGAGACCUGAGGUGUCAAAUAGCUGAAACUUUCGGACUUCAAGAAAAUUACAUCAAGAUCGUAAUAAAUAAGAAACAGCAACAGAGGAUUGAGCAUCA	0.326

Study 2
Target: Ras GTPase-activating protein-binding protein 1, full length (G3BP1, Homo sapiens, UniProt Q13283)
Sequence of UniProt Q13283 (whole entry, looked up): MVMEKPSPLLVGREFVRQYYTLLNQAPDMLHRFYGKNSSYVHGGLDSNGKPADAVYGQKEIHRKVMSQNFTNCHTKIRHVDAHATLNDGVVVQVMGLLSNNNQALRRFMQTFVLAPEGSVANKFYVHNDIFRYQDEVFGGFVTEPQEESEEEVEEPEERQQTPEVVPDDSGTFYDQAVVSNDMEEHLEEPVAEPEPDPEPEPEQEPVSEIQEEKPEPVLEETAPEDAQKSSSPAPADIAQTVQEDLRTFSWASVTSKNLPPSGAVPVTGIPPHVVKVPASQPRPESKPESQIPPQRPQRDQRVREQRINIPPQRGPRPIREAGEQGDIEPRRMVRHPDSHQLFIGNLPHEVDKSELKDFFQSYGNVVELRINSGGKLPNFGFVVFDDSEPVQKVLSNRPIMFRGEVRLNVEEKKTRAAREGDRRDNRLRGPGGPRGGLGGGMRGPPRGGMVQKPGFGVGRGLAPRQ
Technique: RNA Bind-n-Seq
Molecule type: RNA
Sample: in vitro
Tested at: 200 nM
Notes: whole 134-nt RNA, ends assumed
Added: 150 mM LiCl
Baseline: input library
Direction: higher = stronger binding
All molecules: 7-deaza-guanosine replaces G
Strand	log2 enrichment
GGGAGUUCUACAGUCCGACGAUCCUGUGCUACACAUCGUAUGUACCGAAUCGGGGAAAAAAAGGAAAAAAAGGGAAAAAAAGGGAAAGUAUUAUGUUACGCCGUUCGGAUCUGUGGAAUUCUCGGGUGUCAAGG	-0.0932
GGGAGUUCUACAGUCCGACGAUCUUUUACUUCUCCGCCAGGUGCUGUGCUCCAUCAUCGCCGGUACCUUGCACUAUCUCUACCUGGCCACCUUGACCUGGAUGCUGCUGGAGGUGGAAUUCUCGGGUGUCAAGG	-0.0619
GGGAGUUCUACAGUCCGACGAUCAGUCCUGUGCUACACAUCGUAUGUACCGAAUCGGAAAAAGGAAAAAAAGGUUUUUGGAAAGUAUUAUGUUACGCCGUUCGGAUCUGCACUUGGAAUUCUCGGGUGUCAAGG	-2.59
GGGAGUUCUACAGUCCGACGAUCUAACUUUAGAGGAGGAUCUGAUGGAUAUGGCAGUGGACGUGGAUUUGGGGAUGGCUAAAAUGGGUAUGGAGGAGGACCUGGAGGUGGCAAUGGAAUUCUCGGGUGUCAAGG	-0.0343
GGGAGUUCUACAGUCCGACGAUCUAACUUUAGAGGAGGAUCUGAUCGAUAUGGCAGUGGACGUGGAUUUGGGGAUGGCUAUAAUGGGUAUGGAGGAGGACCUGGAGGUGGCAAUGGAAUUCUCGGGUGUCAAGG	0.193
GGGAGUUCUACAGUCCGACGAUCUAACUUUAGAGGAGGAUCUGAUGGAUAUGGCAGUGGACGUGGAUUUGGGGAUGGUUAUAAUGGGUAUGGAGGAGGACCUGGAGGUGGCAAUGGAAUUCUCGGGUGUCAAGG	0.598
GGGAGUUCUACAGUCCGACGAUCCCUGUGCUACACAUCGUAUGUACCGAAUCGGGAAAAAAGGGAAAAAAGGGGAAAAAAGGGAAAGUAUUAUGUUACGCCGUUCGGAUCUGCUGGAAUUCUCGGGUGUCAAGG	0.078
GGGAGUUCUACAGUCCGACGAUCGUCCUGUGCUACACAUCGUAUGUACCGAAUCGGGCCCCCGGGGCCCCCGGCCCCCGGGGAAAGUAUUAUGUUACGCCGUUCGGAUCUGCAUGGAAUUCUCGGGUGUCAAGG	-1.83
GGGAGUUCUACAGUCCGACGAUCUAACUUUAGAGGAGGAUCUGAUGGAUAUGGCAGUGGACGUGGAUUUGGGGAUGGCUAUAAUGGGUAUUGAGGAGGACCUGGAGGUGGCAAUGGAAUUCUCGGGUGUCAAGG	-0.139
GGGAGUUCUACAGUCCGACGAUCCUGUGCUACACAUCGUAUGUACCGAAUCGGGGUUUUUUUGGGGAAAAAAAGGGGUUUGGGGAAAGUAUUAUGUUACGCCGUUCGGAUCUGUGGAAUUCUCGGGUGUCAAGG	-1.63
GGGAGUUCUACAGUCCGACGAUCGUCCUGUGCUACACAUCGUAUGUACCGAAUCGGGGUUUUUUUGGGGAAAGGGGUGGGGAAAGUAUUAUGUUACGCCGUUCGGAUCUGCACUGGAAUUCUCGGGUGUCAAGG	-1.18

Study 3
Target: Histone acetyltransferase KAT6A, winged helix 2, GST fusion (KAT6A, Homo sapiens, UniProt Q92794, residues 85-181)
Technique: protein binding microarray
Molecule type: double-stranded DNA, one strand shown
Sample: in vitro
Tested at: not given
Notes: 8-mer, flanks averaged, mean of 2 arrays, mostly near background
Baseline: not given
Direction: higher = stronger binding
Construct (chain): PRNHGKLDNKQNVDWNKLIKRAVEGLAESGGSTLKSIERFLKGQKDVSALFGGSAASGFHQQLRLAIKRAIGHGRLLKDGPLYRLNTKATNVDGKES
Strand	E-score
CAATACGA	0.00559
CTGTATTA	0.00199
CCGGTGAC	0.024
ATTTACTC	0.101
AATCGGGT	0.0607
AATTCCAC	0.182
CCGAGTTC	0.164
GTGTACTA	-0.111
TAATCGAA	0.0419
CAGTAATG	-0.0158
CTTGTATA	0.026
AACAGGCC	-0.0505
ATGCCTCA	0.0499
AGCCTAAC	-0.108
AAAAGGGC	0.0805
GCCGATAA	0.0468
GAGATCAA	0.0262
CTTATAGC	-0.0345
CCGCAGCA	0.165
TCCAGTCA	-0.224
CGCGTGCA	-0.0636
CTATTTCA	0.159
GTTGAGAA	-0.0587
AAGTACCG	0.0636
TATATCGA	0.0863

Study 4
Target: Centromere-binding protein 1, full length, N-terminal tag (CBF1, Saccharomyces cerevisiae, UniProt P17106, residues 1-351)
Sequence of UniProt P17106 (whole entry, looked up): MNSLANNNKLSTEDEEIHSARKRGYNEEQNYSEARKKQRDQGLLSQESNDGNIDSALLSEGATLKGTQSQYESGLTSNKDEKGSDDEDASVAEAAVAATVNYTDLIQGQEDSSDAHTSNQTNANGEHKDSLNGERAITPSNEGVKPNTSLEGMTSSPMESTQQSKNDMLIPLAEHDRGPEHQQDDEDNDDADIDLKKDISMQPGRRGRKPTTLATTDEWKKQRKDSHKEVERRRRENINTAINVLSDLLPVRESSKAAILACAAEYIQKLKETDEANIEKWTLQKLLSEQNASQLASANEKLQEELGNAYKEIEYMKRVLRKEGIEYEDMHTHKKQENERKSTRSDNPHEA
Technique: protein-binding microarray
Molecule type: double-stranded DNA, one strand shown
Sample: in vitro
Tested at: 0.8 µM
Notes: whole 60-bp probe, no competitor
Direction: higher = stronger binding
Strand	fluorescence intensity
CCTAACTACTATATCGACGTGTCATAGCTTCGTACAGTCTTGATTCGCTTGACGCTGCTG	530 a.u.
CTAGTCCATCACGGTCACATGGTGCAGTACTTCTTCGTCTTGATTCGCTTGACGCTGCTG	5230 a.u.
GAAAACCCTCAGAAGCGGGTGACCCATCTCTCGTAGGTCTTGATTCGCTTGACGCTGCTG	488 a.u.
CTACAAAGATGCTCTTGTGACGTCCAAAACCAGTTCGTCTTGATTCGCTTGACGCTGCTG	576 a.u.
GAATACTTTTCGTTCAACGTGATCTTTGTGTTCTAGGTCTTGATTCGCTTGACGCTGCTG	1450 a.u.
TGTACGAAGCTATGTCACGTGTATATAGTAGTTAGGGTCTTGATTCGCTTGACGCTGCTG	15700 a.u.
GAAACATACTAATATCACGATTATTCCTCATTCTAGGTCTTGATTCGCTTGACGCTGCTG	538 a.u.
CTAGCATTATAGCGCCACATGCGATGAACCTGATTCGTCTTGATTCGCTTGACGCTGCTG	564 a.u.
GAAGCTATCCAAATCCACGTTTCTTTTTATTTATAGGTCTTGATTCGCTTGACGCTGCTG	569 a.u.
CTATATGATAATATACTGGTGGTGAATGACAGCTTCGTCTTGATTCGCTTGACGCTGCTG	525 a.u.
GAAACACGTACGATCTACGTGCGGCTGTAGCGTTAGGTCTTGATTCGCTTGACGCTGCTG	608 a.u.
CTATAATATAATGTGCACGTTCTAAAAATAATTTTCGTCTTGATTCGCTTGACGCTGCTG	1160 a.u.
GAAACTTTTCAAACTCACCTGTTAGATGTCTCTTAGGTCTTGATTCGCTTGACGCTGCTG	522 a.u.
CTAAGAATCTAAGCCAACACGCACAATAGACTCTTCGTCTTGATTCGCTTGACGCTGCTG	494 a.u.
CTAGGTAACAAATCTGGTGAAATCACCATTAAATTCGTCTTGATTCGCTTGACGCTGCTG	492 a.u.
CTACTTCTAATCAAACACGCGGAAATAGCCGCCTTCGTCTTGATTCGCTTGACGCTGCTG	572 a.u.
CCTAACTACTATACACGTGTTATATAGCTTCGTACAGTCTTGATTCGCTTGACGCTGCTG	6900 a.u.
CTAACTAGAGGCCGTCATGTATAAAATGTGGTATTCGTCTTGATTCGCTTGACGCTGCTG	530 a.u.
CTACTTATCAAATGTCACCTATGTACGCTCCACTTCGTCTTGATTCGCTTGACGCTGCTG	549 a.u.

Study 5
Target: Sal-like protein 4, full length isoform B (SALL4, Homo sapiens, UniProt Q9UJQ4-2, residues 1-616)
Technique: universal PBM
Molecule type: double-stranded DNA, one strand shown
Sample: in vitro
Tested at: not given
Notes: 8-mer, flanks averaged, mean of replicates
Direction: higher = stronger binding
Strand	E-score
CTGCGGCA	-0.116
CCCTAACC	-0.226
AGTTTGCC	-0.0957
ACTATGCG	0.0161
CTACACTA	0.177
ACACGGCT	-0.0556
TCTCAAAA	0.262
CCCGTACC	-0.291
GATTAATA	0.381
ATAGGAAA	0.29
AATGACCT	0.102
ACCCAGTA	-0.0636
CGGTATGA	0.148
CCCTTGCC	-0.248
AATAGCCC	-0.0284

Study 6
Target: ABI1, truncated, D143A, DHFR fusion (Arabidopsis thaliana)
Technique: DHFR PCA, deep sequencing
Sample: yeast
Notes: methotrexate growth selection, single substitutions
Added: (+)-ABA 200 µM
Baseline: wild-type fitted maximum
Direction: higher = stronger binding
Starting sequence: PYL1, truncated, DHFR fusion (Arabidopsis thaliana); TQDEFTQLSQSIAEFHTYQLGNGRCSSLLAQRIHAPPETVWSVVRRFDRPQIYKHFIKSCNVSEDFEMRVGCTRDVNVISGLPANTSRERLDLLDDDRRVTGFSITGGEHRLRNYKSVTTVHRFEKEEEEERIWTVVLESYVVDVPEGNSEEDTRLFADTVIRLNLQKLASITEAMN; partner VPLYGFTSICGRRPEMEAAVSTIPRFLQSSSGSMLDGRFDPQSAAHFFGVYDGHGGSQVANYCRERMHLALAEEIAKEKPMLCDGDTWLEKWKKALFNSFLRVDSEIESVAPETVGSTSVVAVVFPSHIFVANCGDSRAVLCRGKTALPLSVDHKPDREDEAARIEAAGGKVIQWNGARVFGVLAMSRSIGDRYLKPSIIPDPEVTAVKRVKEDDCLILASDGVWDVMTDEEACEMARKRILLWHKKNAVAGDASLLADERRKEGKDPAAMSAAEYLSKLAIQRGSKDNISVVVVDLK
Variant	relative binding score [%]
C72L	91.2
P37K	38.1
R46V	71
Q19T	104
S80W	54.5
M68G	92.8
E67Y	99.3
T154N	-11.1
L29Y	53.2
V142W	58.1
S117P	12.6
P83H	33
D153G	30.4
V145C	86.5
I162H	8.29

For quick reference, copied from above (study 6):
Variant	relative binding score [%]
P37K	38.1
T154N	-11.1
C72L	91.2
P83H	33
E67Y	99.3
S117P	12.6
